Measured values collected from several papers.
Compare with care: the assays were run in different laboratories. ± gives the spread as reported.

| Compound | test | system | setting | how to read | endpoint | result |
| --- | --- | --- | --- | --- | --- | --- |
| O=C(Nc1ccc(OC(F)(F)Cl)cc1)c1cnc(N2CC[C@@H](O)C2)c(-c2ccn[nH]2)c1 | per patient, item: absolute neutrophil decrease | human patients | oral, dose not given, dose-finding study | – | grade ≥3 event rate | 17.2% |
| CC(C)C[C@H](NC(=O)[C@@H](Cc1c[nH]c2ccccc12)NC(=O)[C@H](Cc1ccc(O)cc1)NC(=O)[C@H](CO)NC(=O)[C@H](Cc1c[nH]c2ccccc12)NC(=O)[C@H](Cc1c[nH]cn1)NC(=O)[C@@H]1CCC(=O)N1)C(=O)N[C@@H](CCCNC(=N)N)C(=O)N1CCC[C@H]1C(=O)NCC(N)=O | – | Chinese CPP children, overall | intramuscular, 22.5 mg, 12 months, day 1, month 6 | – | patients, drug-related skin TEAEs | 1.5% |
| O=C(Nc1nc2cccc(-c3ccc(CN4CCS(=O)(=O)CC4)cc3)n2n1)C1CC1 | item: any adverse event | human rheumatoid arthritis patients | oral, 30 mg once daily, 4 weeks, regardless of relatedness | – | treatment-emergent adverse events | 41.2% |
| Cn1cnc2ccc(Nc3c(F)ccc(NS(=O)(=O)N4CC(F)C4)c3Cl)c(Cl)c2c1=O | item: headache grade 1-2 | human patients | dose not given, monotherapy trial | relative to: patients | patients with headache | 5% |
| Cc1cc([C@H]2C[C@H]3[C@@H](CF)SC(N)=N[C@@]3(c3ccc(F)cc3F)CO2)on1 | – | male 129/SVE wild-type mouse, brain | subcutaneous, 100 mg/kg, 7 h | – | brain concentration | 78 nM |
| c1ccc([C@H]2CC[C@@]3(CC2)COC[C@@H](C2CCOCC2)N3)cc1 | shake-flask, LC-HRMS | aqueous buffer | 16 h, pH 6.8 | – | solubility | > 750 µM |
| Cc1c(-c2ccc(N3CCc4cccc(C(=O)Nc5nc6ccccc6s5)c4C3)nc2C(=O)O)cnn1CC12CC3(C)CC(C)(C1)CC(OCCNCC[C@H](O)CO)(C3)C2 | – | beagle dog, male, anaesthetised | intravenous infusion, 0.3 mg/kg/min, 75 min | relative to: vehicle | QRS duration change | 0 ms |
| COC(=O)Nc1nc2cc(C(=O)c3ccc(F)cc3)ccc2[nH]1 | – | buffer | 24 h, pH 1.2, room temperature | – | equilibrium solubility | 17 ± 2.6 µg/mL |
| O=C1NCCc2nc(OCc3cccc(F)c3)ccc21 | item: Mydriasis | Sprague-Dawley rat male | oral, 100 mg/kg, 0 min | relative to: baseline, direction not given | Irwin test score | 0 |
| O=C(NO)[C@H]1COC(c2c[nH]c3ccc(F)cc23)=N1 | – | aqueous buffer | pH 7.4 | – | solubility | 9.64 µg/mL |
| C[C@@H](N)c1cc(Cl)ccc1Cn1c(=S)[nH]c(=O)c2[nH]ccc21 | – | human matched controls | oral, 2.5 mg single dose | – | subjects with headache | 10% |
| Cn1cc(Nc2nc(N)nc(-c3cccc(-n4ccc5cc(C6CC6)cc(F)c5c4=O)c3CO)n2)cn1 | – | healthy humans, fed | oral tablet, 50 mg twice daily (multiple dose), 14 (unit not given) | relative to: subjects | vomiting incidence | 0% |
| CC(C)CCC[C@@H](C)[C@H]1CC[C@H]2[C@@H]3C(O)CC4=CC(=O)CC[C@]4(C)[C@H]3CC[C@]12C (stereo partly drawn) | – | human, plasma | endogenous baseline diurnal | – | Cmin | 35 ± 9 nM |
| CN1CCC(CNc2ccc3ncc(-c4cccc(OC(F)(F)F)c4)n3n2)CC1 | skin sensitisation signature, BioMAP Diversity PLUS | primary human cell cocultures | – | – | lowest toxic concentration | 3.3 µM |
| Cc1noc(C)c1Cn1cc(N2C(=O)CN(Cc3cccc(O)c3)C2=O)cn1 | – | pooled human liver microsomes | 1 µM, 120 min, pH 7.4 | – | remaining parent | 90 % peak area |
| N#Cc1cc([C@@H]2COC[C@]3(CCOC3)N2)ccc1F | shake-flask, LC-HRMS | aqueous buffer | 16 h, pH 6.8 | – | solubility | > 750 µM |
| CNC(=O)c1cc(Oc2ccc(NC(=O)Nc3ccc(Cl)c(C(F)(F)F)c3)c(F)c2)ccn1 | – | mouse plasma | 75 ng/mL, 8 h, room temperature | – | short-term stability accuracy | 104% |
| NC1(C(=O)N[C@@H](CCO)c2ccc(Cl)cc2)CCN(c2nc[nH]c3nccc2-3)CC1 | – | metastatic CRPC patients | 320 mg b.i.d., grade 3 to 4, treatment-related, together with: enzalutamide 160 mg daily | – | incidence of Diarrhoea | 0% |
| C[C@@H]1CCO[C@H]2Cn3cc(C(=O)NCc4ccc(F)cc4F)c(=O)c(O)c3C(=O)N12 | – | human paediatric patients, weight sample E to under sample F kg, plasma | oral, 35 mg film-coated tablet, 24 h, steady state, geometric mean, population PK post-hoc, N 8 | – | trough concentration (C24) | 608 ng/mL |
| COc1ccc([C@@H](O)c2cc(-c3ncnc4cc(N5CCOCC5)ccc34)c(F)cc2Cl)nn1 | – | locally advanced rectal cancer patients | 250 mg, together with: capecitabine and radiotherapy | – | lymphocyte count decrease TEAE | 50% |
| CC(C)(C)c1ccc([C@@H]2COC[C@H](c3ccc(Cl)cc3)N2)cc1 | shake-flask, LC-HRMS | aqueous buffer | 16 h, pH 6.8 | – | solubility | < 4 µM |

| Compound | test | system | setting | how to read | endpoint | result |
| --- | --- | --- | --- | --- | --- | --- |
| COc1ccc2c(c1)CN(C(=O)CCN1CCC(Cc3ccccc3)CC1)CC[S@@+]2[O-] | telemetry | conscious dog | intravenous, 4 mg/kg, 0.5 h | – | heart rate | 105 ± 18 beats/min |
| CC(C)(C)C[C@@H]1COC[C@H](c2ccc(C#N)cc2)N1 | shake-flask from DMSO stock | aqueous buffer | 16 h, pH 6.8, LC-HRMS quantitation | – | solubility | > 442 µM |
| COCCOc1cnc2ccn([C@H](C)c3nnc4c(F)cc(-c5cnn(C)c5)cn34)c(=O)c2c1 | – | patients, plasma | oral, 150 mg once daily, day 28 24 h postdose | – | Ctrough | 0.1 µg/mL |
| CN(CC#N)C(=O)C[C@H](Nc1nc2ccccc2[nH]1)c1cccc(C(F)(F)F)c1 | – | human | intravenous infusion, 2 mg/kg, 1 mg/mL formulation | – | apparent clearance | 12.5 ± 0.71 L/h |
| CCN1CCN(Cc2ccc(Nc3ncc(F)c(-c4cc(F)c5nc6n(c5c4)[C@H](C)CCC6)n3)nc2)CC1 | – | human, plasma | 500 mg multiple dosing, mean | – | CL/F | 56.1 L/h |
| CCc1cc(C(=O)NC)c2nccc(N3CCc4c(cc(Cn5ccnc5)cc4-c4cn(C)nc4C(F)(F)F)C3=O)c2c1 | – | Sprague Dawley rats | oral, 50 mg/kg once daily, 7 days | – | serum UREA level | 6.1 ± 0.12 mmol/L |
| O=c1[nH]c(=O)n([C@@H]2O[C@H](CO)[C@@H](O)[C@@H]2F)cc1CCCC[18F] | – | nude mice, RG2 tumour, brain | intravenous, dose not given, 2 h | – | biodistribution | 0.04 ± 0.01 %ID/g |
| O=C(COc1ccc(Cl)cc1)NC12CC(c3nnc([C@H]4C[C@@H](OC(F)(F)F)C4)o3)(C1)C2 | item: Nausea | human | 28 (unit not given) | – | adverse event incidence | 10.5% |
| CC=CC1CCC(C2CCC(CCC)CC2)CC1 (stereo not drawn) | – | rat, placenta | 1000 ng/mL in perfusate, middle dose, mixture of 21 LCMs | – | placental accumulation | 19.2 ± 23.5 ng/g |
| O=c1[nH]c(=O)n([C@H]2C[C@H](O)[C@@H](CO)O2)cc1CCCCC[18F] | – | male CD-1 nu/nu mice, RG2 tumour, kidney | intravenous, dose not given, 2 h | – | biodistribution | 0.55 ± 0.12 %ID/g |
| O=C(NO)c1ccc(CN(c2cnccn2)c2cnccn2)cc1 | – | human | oral, dose not given, treatment-related grade 1, all dose cohorts | – | patients with adverse event | 25% |
| Cc1ccc(Sc2ccccc2N2CCNCC2)c(C)c1 | – | healthy adult men | oral, 10 mg single, 10 day | – | increased blood creatine phosphokinase | 0% |
| CNCc1ccc(-c2cc(-c3nc(-c4ccc(S(=O)(=O)C(C)C)cc4)cnc3N)on2)cc1 | – | female BALB/c mice | single dose, dose not given, 48 h, together with: total body irradiation 6 Gy | – | neutrophils in white blood cells | 48.2% |
| Cc1ccc([C@@H]2O[C@H](CO)[C@@H](O)[C@H](O)[C@H]2O)cc1Cc1ccc(-c2ccc(F)cc2)s1 | – | Japanese type 2 diabetes patients | 100 mg, day 6, 24 h urine collection | relative to: baseline | urinary sodium excretion change | -19.2 mEq |
| CN1CCC[C@H](CN2c3ccccc3Sc3ccccc32)C1.Cl | – | ICR mouse female fasted, brain | oral, 16 mg/kg | – | AUC(0-t) | 19200 ng·h/mL |
| Cn1c(Cc2ccccc2)nnc1Sc1ccc([N+](=O)[O-])cc1C(=O)N1CCOCC1 | – | aqueous buffer | pH 7.4 | – | solubility | 61.6 µg/mL |
| Cc1cc(NC2CCc3cc(Cl)ccc3C2)n2nc(C(C)(F)F)nc2n1 (stereo not drawn) | – | NSG mouse, whole blood | oral, 30 mg/kg | – | AUC(0-t) | 22.8 µM·h |
| CCOC(=O)N1C[C@@H](c2cccnc2)N[C@@H](c2ccc(F)c(C#N)c2)C1 | shake-flask, LC-HRMS | aqueous buffer | 16 h, pH 6.8 | – | solubility | > 750 µM |
| N[C@@H](C[18F])C(=O)O | PET imaging | female athymic nude mice, U-87 MG xenograft, muscle | intravenous, 60 min | – | tracer uptake | 0.88 ± 0.18 %ID/cc |
| Cc1cc(-c2cn[nH]c2-c2cccc(OCc3cccc(C#N)c3)c2)cc(C)n1 | – | C57BL/6 mouse | intraperitoneal, 200 mg/kg daily for 5 days | – | tolerability | not toxic |
| Cn1ncnc1[C@H]1c2n[nH]c(=O)c3cc(F)cc(c23)N[C@@H]1c1ccc(F)cc1 | – | human patients, plasma | oral, 400 µg/m2 twice daily day 1, day 5, dose level DL2, median, together with: temozolomide 20 mg/m2 daily days 2-6 | – | AUCτ | 129 ng·h/mL |

For quick reference, copied from above:
| Compound | test | system | setting | how to read | endpoint | result |
| --- | --- | --- | --- | --- | --- | --- |
| O=c1[nH]c(=O)n([C@@H]2O[C@H](CO)[C@@H](O)[C@@H]2F)cc1CCCC[18F] | – | nude mice, RG2 tumour, brain | intravenous, dose not given, 2 h | – | biodistribution | 0.04 ± 0.01 %ID/g |
| O=C(COc1ccc(Cl)cc1)NC12CC(c3nnc([C@H]4C[C@@H](OC(F)(F)F)C4)o3)(C1)C2 | item: Nausea | human | 28 (unit not given) | – | adverse event incidence | 10.5% |
| CC=CC1CCC(C2CCC(CCC)CC2)CC1 (stereo not drawn) | – | rat, placenta | 1000 ng/mL in perfusate, middle dose, mixture of 21 LCMs | – | placental accumulation | 19.2 ± 23.5 ng/g |
| O=c1[nH]c(=O)n([C@H]2C[C@H](O)[C@@H](CO)O2)cc1CCCCC[18F] | – | male CD-1 nu/nu mice, RG2 tumour, kidney | intravenous, dose not given, 2 h | – | biodistribution | 0.55 ± 0.12 %ID/g |
| O=C(NO)c1ccc(CN(c2cnccn2)c2cnccn2)cc1 | – | human | oral, dose not given, treatment-related grade 1, all dose cohorts | – | patients with adverse event | 25% |
